Assay results pooled from the literature.
Every numbered part comes from another study and shows a few of its results, in no order. “And” joins repeats or separate records; there may be more than shown.
UniProt O75747, sequence (whole entry, looked up): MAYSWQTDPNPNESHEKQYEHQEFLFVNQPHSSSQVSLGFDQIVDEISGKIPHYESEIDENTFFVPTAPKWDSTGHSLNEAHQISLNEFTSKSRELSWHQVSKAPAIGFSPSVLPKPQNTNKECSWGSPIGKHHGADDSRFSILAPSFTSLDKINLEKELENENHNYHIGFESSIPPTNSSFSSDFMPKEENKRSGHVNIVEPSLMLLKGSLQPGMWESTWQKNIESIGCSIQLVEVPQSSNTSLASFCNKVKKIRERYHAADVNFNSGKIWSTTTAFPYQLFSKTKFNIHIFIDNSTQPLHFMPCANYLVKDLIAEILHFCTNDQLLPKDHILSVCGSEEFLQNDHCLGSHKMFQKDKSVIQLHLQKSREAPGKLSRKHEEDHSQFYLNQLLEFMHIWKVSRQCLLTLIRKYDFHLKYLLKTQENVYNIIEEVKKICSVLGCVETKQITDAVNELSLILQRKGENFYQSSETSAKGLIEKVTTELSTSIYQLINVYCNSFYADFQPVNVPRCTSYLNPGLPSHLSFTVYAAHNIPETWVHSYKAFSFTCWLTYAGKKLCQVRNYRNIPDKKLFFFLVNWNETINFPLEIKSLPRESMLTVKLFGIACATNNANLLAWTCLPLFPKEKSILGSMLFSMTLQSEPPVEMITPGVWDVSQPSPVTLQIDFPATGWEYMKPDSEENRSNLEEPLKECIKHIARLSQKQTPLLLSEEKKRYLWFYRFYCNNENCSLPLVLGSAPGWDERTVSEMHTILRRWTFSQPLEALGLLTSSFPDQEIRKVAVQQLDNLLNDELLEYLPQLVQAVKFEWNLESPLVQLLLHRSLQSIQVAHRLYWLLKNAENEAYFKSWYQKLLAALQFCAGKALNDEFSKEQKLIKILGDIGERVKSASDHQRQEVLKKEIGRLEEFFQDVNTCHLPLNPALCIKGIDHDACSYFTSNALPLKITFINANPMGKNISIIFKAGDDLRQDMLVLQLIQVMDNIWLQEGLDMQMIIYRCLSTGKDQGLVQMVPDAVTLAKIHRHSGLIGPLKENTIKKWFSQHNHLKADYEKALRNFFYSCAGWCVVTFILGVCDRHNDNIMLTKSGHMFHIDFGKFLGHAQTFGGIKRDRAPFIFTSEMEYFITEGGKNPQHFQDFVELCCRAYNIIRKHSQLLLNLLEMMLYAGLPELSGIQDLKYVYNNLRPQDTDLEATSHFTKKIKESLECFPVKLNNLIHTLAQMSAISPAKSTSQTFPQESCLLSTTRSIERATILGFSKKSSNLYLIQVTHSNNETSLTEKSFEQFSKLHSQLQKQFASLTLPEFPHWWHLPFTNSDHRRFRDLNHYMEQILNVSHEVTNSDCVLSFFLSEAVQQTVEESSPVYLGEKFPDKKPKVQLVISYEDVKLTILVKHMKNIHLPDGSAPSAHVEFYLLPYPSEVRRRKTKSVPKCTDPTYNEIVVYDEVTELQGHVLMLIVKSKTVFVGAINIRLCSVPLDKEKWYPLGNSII
UniProt Q6P3R8, sequence (whole entry, looked up): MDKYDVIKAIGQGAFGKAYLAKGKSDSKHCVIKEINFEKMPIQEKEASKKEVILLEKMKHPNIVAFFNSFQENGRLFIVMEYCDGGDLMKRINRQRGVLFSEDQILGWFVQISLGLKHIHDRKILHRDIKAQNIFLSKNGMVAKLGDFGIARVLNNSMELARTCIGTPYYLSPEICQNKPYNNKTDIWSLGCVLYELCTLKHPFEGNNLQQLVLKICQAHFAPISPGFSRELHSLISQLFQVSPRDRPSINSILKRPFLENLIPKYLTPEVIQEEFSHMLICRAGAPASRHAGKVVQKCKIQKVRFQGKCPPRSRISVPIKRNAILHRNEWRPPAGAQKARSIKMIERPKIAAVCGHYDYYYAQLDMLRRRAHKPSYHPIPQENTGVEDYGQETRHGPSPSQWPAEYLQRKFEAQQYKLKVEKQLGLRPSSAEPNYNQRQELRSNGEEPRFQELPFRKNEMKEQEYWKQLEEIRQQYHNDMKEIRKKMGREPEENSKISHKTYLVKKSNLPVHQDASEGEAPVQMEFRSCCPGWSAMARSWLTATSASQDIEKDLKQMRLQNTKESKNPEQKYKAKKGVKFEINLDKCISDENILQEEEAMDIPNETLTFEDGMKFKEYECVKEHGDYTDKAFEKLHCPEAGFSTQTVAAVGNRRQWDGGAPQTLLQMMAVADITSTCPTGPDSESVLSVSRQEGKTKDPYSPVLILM
UniProt P07949, sequence (whole entry, unmodified, looked up): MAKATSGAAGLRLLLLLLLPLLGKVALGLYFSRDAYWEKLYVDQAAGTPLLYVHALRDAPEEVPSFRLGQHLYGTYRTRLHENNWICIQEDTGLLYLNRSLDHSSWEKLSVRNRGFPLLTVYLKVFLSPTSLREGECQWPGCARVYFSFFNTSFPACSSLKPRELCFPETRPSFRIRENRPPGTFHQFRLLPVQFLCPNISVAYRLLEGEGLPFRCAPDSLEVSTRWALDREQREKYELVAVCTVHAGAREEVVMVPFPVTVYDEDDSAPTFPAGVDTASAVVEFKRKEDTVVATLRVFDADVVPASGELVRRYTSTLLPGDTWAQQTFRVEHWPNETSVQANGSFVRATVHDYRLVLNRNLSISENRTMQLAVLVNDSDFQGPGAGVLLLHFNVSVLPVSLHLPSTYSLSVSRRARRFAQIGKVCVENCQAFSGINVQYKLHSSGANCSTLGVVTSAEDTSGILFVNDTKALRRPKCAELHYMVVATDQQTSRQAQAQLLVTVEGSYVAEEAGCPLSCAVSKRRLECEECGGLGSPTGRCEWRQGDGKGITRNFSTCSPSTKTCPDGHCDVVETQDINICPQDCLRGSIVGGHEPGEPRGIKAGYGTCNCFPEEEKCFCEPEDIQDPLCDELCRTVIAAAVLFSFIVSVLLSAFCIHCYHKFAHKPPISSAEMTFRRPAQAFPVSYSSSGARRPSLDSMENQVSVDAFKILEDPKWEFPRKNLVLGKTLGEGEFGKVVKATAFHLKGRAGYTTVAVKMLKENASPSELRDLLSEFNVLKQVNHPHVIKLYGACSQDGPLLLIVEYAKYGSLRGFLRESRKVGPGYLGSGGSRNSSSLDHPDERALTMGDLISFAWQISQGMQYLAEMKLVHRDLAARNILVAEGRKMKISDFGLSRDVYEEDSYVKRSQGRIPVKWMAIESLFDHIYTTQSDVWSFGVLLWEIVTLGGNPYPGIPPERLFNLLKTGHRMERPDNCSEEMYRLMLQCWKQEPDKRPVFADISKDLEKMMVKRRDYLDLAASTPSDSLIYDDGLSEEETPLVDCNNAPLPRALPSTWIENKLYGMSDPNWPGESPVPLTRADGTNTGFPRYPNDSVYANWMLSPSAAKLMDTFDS
UniProt O14730, sequence (whole entry, looked up): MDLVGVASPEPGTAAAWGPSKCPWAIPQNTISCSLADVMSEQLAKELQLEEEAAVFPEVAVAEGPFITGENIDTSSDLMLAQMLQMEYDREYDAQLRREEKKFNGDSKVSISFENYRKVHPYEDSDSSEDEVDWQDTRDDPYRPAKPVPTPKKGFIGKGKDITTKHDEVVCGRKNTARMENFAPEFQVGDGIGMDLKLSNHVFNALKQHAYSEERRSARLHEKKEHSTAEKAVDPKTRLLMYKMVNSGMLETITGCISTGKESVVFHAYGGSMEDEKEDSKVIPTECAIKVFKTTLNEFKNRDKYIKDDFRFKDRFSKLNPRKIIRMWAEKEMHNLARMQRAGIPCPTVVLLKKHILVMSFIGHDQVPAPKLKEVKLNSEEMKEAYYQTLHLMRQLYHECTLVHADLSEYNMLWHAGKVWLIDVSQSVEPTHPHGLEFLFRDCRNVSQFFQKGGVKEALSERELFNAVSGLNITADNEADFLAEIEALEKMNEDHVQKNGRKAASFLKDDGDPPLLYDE
UniProt P51956, sequence (whole entry, looked up): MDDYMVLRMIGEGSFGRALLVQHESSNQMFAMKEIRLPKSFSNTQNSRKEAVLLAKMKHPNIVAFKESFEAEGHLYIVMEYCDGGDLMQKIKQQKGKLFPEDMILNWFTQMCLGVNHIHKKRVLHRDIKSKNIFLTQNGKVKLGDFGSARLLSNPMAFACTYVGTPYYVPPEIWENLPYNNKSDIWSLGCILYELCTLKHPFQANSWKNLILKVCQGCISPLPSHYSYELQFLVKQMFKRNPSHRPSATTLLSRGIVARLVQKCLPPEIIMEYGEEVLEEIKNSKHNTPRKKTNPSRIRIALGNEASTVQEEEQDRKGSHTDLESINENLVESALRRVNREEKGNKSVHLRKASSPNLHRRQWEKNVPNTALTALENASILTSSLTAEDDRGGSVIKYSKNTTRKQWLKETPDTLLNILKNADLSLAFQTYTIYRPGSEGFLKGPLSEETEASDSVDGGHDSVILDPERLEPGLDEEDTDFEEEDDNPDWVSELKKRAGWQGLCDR

Block 1
Target: NUAK family SNF1-like kinase 2 (NUAK2, Homo sapiens, UniProt Q9H093)
UniProt Q9H093, sequence (whole entry, looked up): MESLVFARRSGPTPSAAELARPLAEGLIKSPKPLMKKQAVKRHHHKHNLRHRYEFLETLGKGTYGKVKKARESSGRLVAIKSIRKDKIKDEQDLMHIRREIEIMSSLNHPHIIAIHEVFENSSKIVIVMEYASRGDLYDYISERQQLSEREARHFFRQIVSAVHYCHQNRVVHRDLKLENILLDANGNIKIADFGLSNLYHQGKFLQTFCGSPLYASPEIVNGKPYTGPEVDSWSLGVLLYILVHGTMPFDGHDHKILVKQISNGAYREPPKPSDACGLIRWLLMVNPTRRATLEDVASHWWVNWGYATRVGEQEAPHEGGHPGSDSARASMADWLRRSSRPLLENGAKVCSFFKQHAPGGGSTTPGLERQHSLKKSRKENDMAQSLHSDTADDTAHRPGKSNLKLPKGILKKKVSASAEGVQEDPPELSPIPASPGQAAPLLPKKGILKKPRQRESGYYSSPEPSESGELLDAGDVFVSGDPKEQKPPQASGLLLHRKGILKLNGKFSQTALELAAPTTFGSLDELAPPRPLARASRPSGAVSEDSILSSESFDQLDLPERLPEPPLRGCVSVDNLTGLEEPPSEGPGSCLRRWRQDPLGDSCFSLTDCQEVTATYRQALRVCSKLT
Effect on: enzyme activity
Mode: inhibitor
Tested at: 0.5 µM
Reference: control
`Nc1ncnc2n[nH]c(Nc3ccc(F)cc3)c12` gave a remaining activity of 90.4%.
`O=C(O)c1ccc2c3c1cccc3c(=O)n1c3ccccc3nc21` has a remaining activity of 122%.
For `O=C(CCCc1ccc(-c2ccccc2F)cc1)Nc1ccc(O)cc1`, the remaining activity was 92.9%.
For `N#CC(C#N)=C(N)/C(C#N)=C/c1ccc(O)cc1`, the remaining activity was 122%.
`COc1ccc(C(=O)Nc2sc3c(c2C(N)=O)CCCC3)cc1OC` has a remaining activity of 99.5%.
The remaining activity of `COc1cc2nccc(Oc3ccc(NC(=S)NC(=O)c4ccccc4C)cc3)c2cc1OC` is reported as 106%.
The remaining activity of `O=C(Nc1cccc(Nc2cc(Nc3cccc(C(F)(F)F)c3)ncn2)c1)C1CC1` is reported as 103%.
`Cn1sc(=O)n(Cc2ccccc2)c1=O` has a remaining activity of 97.7%.
The remaining activity of `Cc1nc(-c2ccccc2)c(-c2ccncc2)o1` is reported as 128%.
The remaining activity of `O=C1NC(=O)C(c2cn(CCCO)c3ncccc23)=C1c1cnccn1` is reported as 92.3%.
With `OCC(O)CCON=C1C(c2c(O)[nH]c3ccccc23)=Nc2ccccc21` (centres unmarked) the remaining activity was 55.1%.
The remaining activity of `Oc1ccc(-c2nc(-c3ccncc3)c(-c3ccc(F)cc3)[nH]2)cc1` is reported as 128%.
The remaining activity of `CO[C@H]1C[C@@H]2CC[C@@H](C)[C@@](O)(O2)C(=O)C(=O)N2CCCC[C@H]2C(=O)O[C@H]([C@H](C)C[C@@H]2CC[C@@H](O)[C@H](OC)C2)CC(=O)[C@H](C)/C=C(\C)[C@@H](O)[C@@H](OC)C(=O)[C@H](C)C[C@H](C)/C=C/C=C/C=C/1C` is reported as 140%.
The remaining activity of `NCCNc1ncc(C(N)=O)c(Nc2cccc(C(F)(F)F)c2)n1` is reported as 137%.
`Nc1ccc2ncnc(NCCc3ccc(Oc4ccccc4)cc3)c2c1` has a remaining activity of 112%.

Block 2
SMILES: C[C@H]1CC[C@H](n2c3cnccc3c3cnc(Nc4ccc5c(n4)CCN(C(=O)CO)C5)nc32)CC1
Effect on: cell-free assay
Tested at: 1 µM
It gave 36% for remaining signal (RIOK3 (Homo sapiens, UniProt O14730)).
The remaining signal was 100% (NEK3 (Homo sapiens, UniProt P51956)).
It gave 100% for remaining signal (PIK3CA (Homo sapiens, UniProt P42336)).
It gave 4.1% for remaining signal (JAK1 (Homo sapiens, UniProt P23458)).
The remaining signal was 51% (RET (Homo sapiens, UniProt P07949, V804M)).

Block 3
Cell line: A-375
Tested at: 100 µM
Time: 18 h
For `C[C@]12CCC3=C4CCC(=O)C=C4CC[C@H]3[C@@H]1CC[C@@]2(O)CC#N`, the viability was 95.9%.
For `OCCN1CCN(CCCN2c3ccccc3Sc3ccc(Cl)cc32)CC1`, the viability was 9.83%.
`CC1CCc2c(N3CCC(O)CC3)c(F)cc3c(=O)c(C(=O)O)cn1c23` (centres unmarked) gave a viability of 92.5%.
`O=c1[nH]c(=O)n([C@H]2C[C@H](O)[C@@H](CO)O2)cc1C(F)(F)F` has a viability of 64.6%.
`COc1cc(N)c(Cl)cc1C(=O)N[C@@H]1CCN(CCCOc2ccc(F)cc2)C[C@@H]1OC` (racemic) gave a viability of 83.4%.
For `CC(=O)OCC[N+](C)(C)C`, the viability was 93.2%.
The viability of `CN1CCC[C@@H]1Cc1c[nH]c2ccc(CCS(=O)(=O)c3ccccc3)cc12` is reported as 93.8%.
`Cc1ccc([C@@H]2O[C@H](CO)[C@@H](O)[C@H](O)[C@H]2O)cc1Cc1ccc(-c2ccc(F)cc2)s1` gave a viability of 9.71%.
For `Cc1ccc(/C(=C\CN2CCCC2)c2ccccn2)cc1`, the viability was 60.6%.

Block 4
Structure (SMILES): CC(C)S(=O)(=O)c1ccc2nccc(Nc3ccc4sc(C5CCCC5)nc4c3)c2c1.Cl
Tested at: 1 µM
The remaining activity was 75% (PRKCA (Homo sapiens, UniProt P17252); kinase activity, inhibitor).
It gave 96% for remaining activity (PIK3C2G (Homo sapiens, UniProt O75747); kinase activity, inhibitor).
The remaining activity was 105% and 104% (MAPK1(h) (human)).
NEK5 (Homo sapiens, UniProt Q6P3R8); kinase activity, inhibitor — remaining activity: 88%.
It gave 110% for remaining activity (PASK (Homo sapiens, UniProt Q96RG2); kinase activity, inhibitor).

Block 5
SMILES: COc1ccc2c(O[C@@H]3C[C@H]4C(=O)N[C@]5(C(=O)O)CC5/C=C\CCCCC[C@H](NC(=O)OC5CCCC5)C(=O)N4C3)cc(-c3csc(NC(=O)C(C)C)n3)nc2c1C (some centres unmarked)
Tested at: 1 µM
Reference: DMSO
It gave 125% for viability (sample BA colorectal tumour organoid).
For sample C colorectal tumour organoid; replicate 1: viability read 109%.
It gave 85.6% for viability (sample I colorectal tumour organoid; replicate 1).
It gave 78.3% for viability (sample I colorectal tumour organoid; replicate 2).

Excerpt of the above (block 3):
`COc1cc(N)c(Cl)cc1C(=O)N[C@@H]1CCN(CCCOc2ccc(F)cc2)C[C@@H]1OC` (racemic) gave a viability of 83.4%.
`Cc1ccc([C@@H]2O[C@H](CO)[C@@H](O)[C@H](O)[C@H]2O)cc1Cc1ccc(-c2ccc(F)cc2)s1` gave a viability of 9.71%.
For `CC(=O)OCC[N+](C)(C)C`, the viability was 93.2%.
